Experimental data of several laboratories.
Protocols differ between the studies behind these lines. Several values in a cell are separate wells, animals, samples, runs or records.
Target: Platelet-derived growth factor receptor beta (PDGFRB, Homo sapiens, UniProt P09619)

| SMILES | assay | conditions | how to read | measurement | value |
| --- | --- | --- | --- | --- | --- |
| CNC1C[S+]2CC[S+]3CC[S+](C1)[Ru-4]321([N]=C=S)[n]2c3ccc(OC)cc3c3c4c(c5cc(F)c[n+]1c5c32)C(=O)NC4=O (stereo not drawn) | KinomeScan | 0.1 µM | reference: untreated | remaining binding | 15% |
| C=C1C[C@]2(C(=O)OC)C=C(C(=O)Nc3cccc(C(=O)Nc4ccc(Nc5nccc(-c6cccnc6)n5)c(C)c4)c3)C(=O)[C@H]1C2 | binding, competition with immobilised ligand | 1 µM |  | remaining binding | 81% |
| O=c1c(-c2ccc(Cl)c(CN3CCOCC3)c2)coc2cc(O)ccc12 | enzyme activity, inhibitor | 1 µM |  | remaining activity | 100% |
| COc1cc(OC)c(F)c(/C=C/c2cnc3ccn(S(=O)(=O)c4cn(CCF)cn4)c3n2)c1F |  | 1000 nM |  | inhibition | 7.8% |
| NC(=O)C[C@H]1CCc2sc3ncnc(O[C@H]4CC[C@H](N5CCOCC5)CC4)c3c21 | enzyme activity, inhibitor | 10 µM |  | inhibition | 5% |
| CN1CC[C@@H](COc2cnc(C#N)cc2-c2ccn3nc(NC(=O)C4CC4)cc3c2)C1 | enzyme activity, inhibitor | 1 µM |  | inhibition | 32% |
| CC(C)=CC1OC(C)(C)C2C=C3C(=O)C(Cl)=CC(O)C3C3C(O)C4OC4C(=O)C132 (stereo not drawn) | cell-free assay, competition with immobilised ligand | 10 µM |  | remaining binding | 100% |
| Cc1cnc2nc1Nc1cccc(c1)COC/C=C/COCc1cc(ccc1OCCN1CCOCC1)N2 | binding | 0.1 µM |  | remaining binding | 12% |
| Nc1ncc2c(n1)-c1c([nH]c3ccc(C4=CCOCC4)cc13)CCC2 | binding, competition with immobilised ligand | 1 µM |  | remaining binding | 100% |
| COCC12C(=O)NC3C4(C(OC)CC1O)C1CC5(O)C(OC)C(O)C(OC(C)=O)(C1C5OC(=O)c1ccccc1)C3(O)C(OC)C24 (stereo not drawn) | kinase activity, inhibitor, ProQinase kinase profiling | 25 µM | reference: control | remaining activity | 101% and 108% |
| COc1cc(Nc2nccc(-c3cnn4nc(OC)ccc34)n2)cc(C(F)(F)F)c1 | binding, competition with immobilised ligand | 1 µM |  | remaining binding | 85% |
| COc1c(Cl)cccc1Nc1c(-c2ccncc2C#C[C@@]2(C)CCCN2C(=O)/C=C/CN(C)C)[nH]c2c1C(=O)NCC2 | cell-free assay, competition with immobilised ligand | 3 µM |  | remaining binding | 86% |
| O=C(Nc1ccc(Oc2ncnc3[nH]cc(-c4ccccc4)c23)c(F)c1)c1c2n(n(-c3cc(F)ccc3F)c1=O)CCCC2 | enzyme activity, inhibitor | 0.5 µM |  | inhibition | -12% |
| C=C1CCCCCCCCCC(CO)C1=O (stereo not drawn) | cell-free assay | 10 µM |  | remaining signal | 100% |
| Cc1ccc(-c2c(/C=C(\C#N)C(=O)NC(C)C)n(CCCO)c3ncnc(N)c23)cc1 | cell-free assay, competition with immobilised ligand | 1 µM |  | remaining binding | 27% |
| CNC(=O)c1cnc(Nc2ccncc2)nc1-c1ccc(C)cc1 | cell-free assay, competition with immobilised ligand | 10 µM |  | remaining binding | 5.3% |
| CN1CCN(Cc2ccc(NC(=O)c3cccc(C#Cc4cnc(N)c5ncccc45)c3)cc2C(F)(F)F)CC1 | cell-free assay, competition with immobilised ligand | 0.5 µM |  | remaining binding | 0% |
| Cc1nc2c(F)cc(-c3nc(Nc4ccc(CNC(=O)CCCCCCC(=O)NO)cc4)ncc3F)cc2n1C(C)C | enzyme activity, inhibitor | 1 µM |  | inhibition | 54% |
| CNC(=O)C1CCN(c2cc(C)c(F)cc2NC(=O)c2ccc(-c3cc(O)ccc3C)c(C)c2)CC1 | binding, competition with immobilised ligand | 1 µM |  | remaining binding | 43% |
| CCn1cc(C(=O)O)c(=O)c2c(N)c(F)c(NC3CCCCC3)cc21 | kinase activity | 0.1 µM, together with: ATP at Km |  | inhibition | -7.4% |
| COc1ccc(NC(=O)Nc2ccc3c(c2)C(=O)N(C(C)CO)CC(C)C(CN(C)Cc2ccc4c(c2)OCO4)O3)cc1 (stereo not drawn) | binding, competition with immobilised ligand | 10 µM |  | remaining binding | 100% |
| C=CC(=O)Nc1cccc(-c2cnc3[nH]cc(C(=O)NC(C)(C)C)c3n2)c1 | kinase activity | 0.1 µM |  | inhibition | 15% and 23% |
| CCN1CCN(Cc2ccc(C(=O)Nc3ccc(C)c(NCc4cnc5[nH]ccc5c4OC)c3)cc2C(F)(F)F)CC1 | binding, competition with immobilised ligand | 1 µM |  | remaining binding | 0% |
| Cc1cccc(O[C@H]2CCC[C@@H](C(C)CNCc3ccncc3)C2)c1 (relative stereo) | enzyme activity, inhibitor | 1 µM |  | inhibition | 3% |
